Assay results collected from several papers.
Lines come from different studies, so protocols differ. ± gives the spread as reported.

O=C(NCCS)c1cccc(C(=O)NCCS)c1 — concentration (male Sprague-Dawley rat, plasma; intravenous, 1 mg/kg, 4.98 min): 493 ng/mL
[O-][S+]1CCc2nc(N3CCC(c4ncc(Cl)cn4)CC3)nc(NC3(CO)CCC3)c21 (stereo not drawn) — Cmax at steady state (human, plasma; oral, 12 mg twice daily, fed, geometric mean): 348 nM
c1ccc2c(-c3cnn4cc(-c5ccc(N6CCNCC6)cc5)cnc34)ccnc2c1 — EC100 toxicity (zebrafish embryos; dose not given): 20 µM
CCCCCOc1ccc(-c2cc(-c3ccc(C(=O)N[C@H]4C[C@@H](O)[C@@H](O)NC(=O)[C@@H]5[C@@H](O)[C@@H](C)CN5C(=O)[C@H]([C@H](O)CC(N)=O)NC(=O)[C@H]([C@H](O)[C@@H](O)c5ccc(O)c(OS(=O)(=O)O)c5)NC(=O)[C@@H]5C[C@@H](O)CN5C(=O)[C@H]([C@@H](C)O)NC4=O)cc3)no2)cc1 — AUC(tau) (human, 4 months to <2 years, plasma; intravenous, 4.5 mg/kg once daily, day 7): 278 µg·h/mL
CC(C)C(=O)OC[C@H]1O[C@@H](n2ccc(NO)nc2=O)[C@H](O)[C@@H]1O — remaining compound (rat blood dialysate; 5 ng/mL, 6 h, 10 °C, autosampler stability, added: NHC 25 ng/mL): 98.6 ± 4.35%
CC[C@H](C)[C@H](NC(=O)[C@H](CO)NC(=O)[C@H](C)NC(=O)[C@@H](NC(=O)CNC(=O)[C@H](CO)NC(=O)[C@@H](NC(=O)[C@@H](NC(=O)[C@H](Cc1c[nH]cn1)NC(=O)[C@@H]1CCCN1C(=O)[C@@H](NC(=O)[C@H](CC(C)C)NC(=O)[C@H](CO)NC(=O)[C@H](CC(C)C)NC(=O)[C@@H](N)Cc1ccccc1)[C@@H](C)CC)[C@@H](C)CC)C(C)C)C(C)C)C(=O)N[C@@H](C)C(=O)N[C@@H](CCCCN)C(=O)N[C@@H](Cc1c[nH]cn1)C(=O)N[C@@H](Cc1ccccc1)C(N)=O — concentration found (UPLC-MS/MS; rat plasma; 1.6 µg/mL, 4 h, room temperature, short-term stability): 1.51 µg/mL
COc1ccc(C[C@@H]2NC(=O)[C@H]([C@@H](C)O)NC(=O)[C@@H]3[C@@H]4CCN3C(=O)[C@@H]3Cc5cn(c6ccc(F)cc56)CCCCCCN(Cc5ccc(cc5)CCNC(=O)[C@]5(C)CCCN5C2=O)C(=O)CCC(=O)N[C@@H](C)C(=O)N[C@H](CNC(=O)CCCCC[N+](C)(C)C)C(=O)N[C@@H](Cc2cccc(c2)CNC(=O)CO4)C(=O)N3)cc1 — Tmax (fasted healthy humans, plasma; oral, 200 mg single dose, with 1800 mg Labrasol, median): 2.02 h
CCNc1nc(Cl)nc(NC(C)C)n1 — remaining amount (LC-MS/MS; herbicide solution; 2 h, 4 °C, added: 254 nm UV exposure): 34.9 ± 6.06%
CC(C)[C@H](NC(=O)[C@H](Cc1c[nH]c2ccccc12)NC(=O)[C@H](CCCCN)NC(=O)CNC(=O)[C@@H](NC(=O)[C@H](C)NC(=O)[C@@H]1CCCN1C(=O)[C@H](CC(N)=O)NC(=O)[C@H](Cc1c[nH]c2ccccc12)NC(=O)[C@@H](NC(=O)[C@H](Cc1c[nH]c2ccccc12)NC(=O)[C@@H](N)CCCNC(=N)N)C(C)C)[C@@H](C)O)C(=O)N[C@@H](Cc1c[nH]c2ccccc12)C(=O)N[C@@H](CCC(=O)O)C(=O)O — Tm (circular dichroism; phosphate buffer; pH 6.5): 97.9 ± 0.1 °C
CN[C@@](C)(C[18F])C(=O)O — tracer uptake (mouse, blood; 1 h, tumour-bearing): 1.1 %ID/g
CC(=O)N[C@H](CCCCN)C(=O)N[C@H](CC(C)C)C(=O)N[C@@H](CN)C(=O)N[C@H](CO)C(=O)N[C@H](CC(C)C)C(=O)N[C@H](CC(C)C)C(=O)N[C@@H](CN)C(=O)N[C@@H](C(=O)N[C@H](CC(C)C)C(=O)N[C@H](CO)C(=O)N[C@@H](CN)C(=O)N[C@H](C)C(=O)N[C@H](C)C(=O)N[C@H](C)C(=O)N[C@H](C)C(=O)N[C@H](C)C(=O)N[C@H](CC(C)C)C(=O)N[C@@H](CN)C(=O)N[C@@H](C(=O)N[C@H](CC(C)C)C(=O)N[C@H](CC(C)C)C(=O)N[C@@H](CN)C(=O)N[C@H](C)C(=O)N[C@H](CC(C)C)C(=O)N[C@H](CO)C(=O)N[C@@H](CN)C(N)=O)[C@H](C)O)[C@H](C)O — HC50 (human erythrocytes; 18 h, pH 7.4, 37 °C, 50% hemolysis): 7.2 µg/mL
[123I]c1cncc(OC[C@@H]2CCN2)c1 — tissue/plasma ratio (SPECT; human, occipital lobe; intravenous bolus plus infusion, 7.7 mCi; relative to: tissue over plasma): 23.8

Some of these lines once more:
CCNc1nc(Cl)nc(NC(C)C)n1 — remaining amount (LC-MS/MS; herbicide solution; 2 h, 4 °C, added: 254 nm UV exposure): 34.9 ± 6.06%
